Measurements of several laboratories.
Parts stem from different laboratories: compare values within a part only. Substitutions count along the parent as printed.

Sample 1
Target: ABI1, truncated, D143A, DHFR fusion (Arabidopsis thaliana)
Method: DHFR PCA, deep sequencing
Matrix: yeast
Setting: methotrexate growth selection, single substitutions
With: (+)-ABA 0.39 µM
Relative to: wild-type fitted maximum
Reading: higher = stronger binding
Endpoint: relative binding score
Starting sequence: PYL1, truncated, DHFR fusion (Arabidopsis thaliana); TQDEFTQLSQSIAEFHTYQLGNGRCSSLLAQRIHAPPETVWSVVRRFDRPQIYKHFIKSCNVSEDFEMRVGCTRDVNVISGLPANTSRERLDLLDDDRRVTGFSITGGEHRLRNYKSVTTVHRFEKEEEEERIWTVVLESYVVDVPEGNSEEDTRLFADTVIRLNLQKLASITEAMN
Variant = G107E; value = 21%
Variant = V161E; value = -17.3%
Variant = T101R; value = -10.8%
Variant = H34S; value = 39.1%
Variant = P50Y; value = -12.1%
Variant = E147H; value = 26%
Variant = L20G; value = 42.9%

Sample 2
Target: CCND2, cyclin fold, Cln2 fusion (human)
Method: yeast growth competition, sequencing
Matrix: yeast
Setting: weak parent motif
Relative to: not given
Reading: higher = stronger binding
Endpoint: normalised enrichment score
Starting sequence: ASZ1 docking peptide (human); GFGFLLFICKLTF; partner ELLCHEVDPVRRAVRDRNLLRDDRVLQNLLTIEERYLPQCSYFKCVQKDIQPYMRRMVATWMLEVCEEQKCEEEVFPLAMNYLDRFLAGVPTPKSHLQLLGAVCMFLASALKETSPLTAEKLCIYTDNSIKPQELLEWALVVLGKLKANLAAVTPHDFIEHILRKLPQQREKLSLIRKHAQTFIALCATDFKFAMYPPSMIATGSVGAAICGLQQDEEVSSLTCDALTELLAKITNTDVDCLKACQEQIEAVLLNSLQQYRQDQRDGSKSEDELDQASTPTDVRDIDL
Variant = GFGFLLFICALTF [K10A]; value = 0.747
Variant = AFGFLLFICKLTF [G1A]; value = -0.219
Variant = GFGFLLFACKLTF [I8A]; value = -0.368
Variant = GFGFLAFICKLTF [L6A]; value = -0.227
Variant = GFGFLLFICKLAF [T12A]; value = -0.532
Variant = GFGFALFICKLTF [L5A]; value = -0.38

Sample 3
Target: Max-binding protein MNT, bHLH-zipper, MAX partner unstated (MNT, Homo sapiens, UniProt Q99583, residues 220-300)
Method: protein-binding microarray
Molecule type: double-stranded DNA, one strand shown
Matrix: in vitro
Concentration: not given
Setting: k-mer, scored over probes, only values ≥0.25
Reading: higher = stronger binding
Endpoint: E-score
Target sequence (chain): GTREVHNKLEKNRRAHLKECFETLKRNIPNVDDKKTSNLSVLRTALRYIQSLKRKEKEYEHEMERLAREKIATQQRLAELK
Oligonucleotide = ACGCCCCA; value = 0.291
Oligonucleotide = CCGTGCAC; value = 0.334
Oligonucleotide = CTCAGCAC; value = 0.281
Oligonucleotide = ACCCACAT; value = 0.315
Oligonucleotide = AGGGTGGG; value = 0.331
Oligonucleotide = CCACGTGG; value = 0.499
Oligonucleotide = GCCCACGC; value = 0.394
Oligonucleotide = ACCCGCGC; value = 0.26
Oligonucleotide = CACATGCG; value = 0.463
Oligonucleotide = AGCGCGCG; value = 0.257
Oligonucleotide = ACTCACGC; value = 0.284

Mixed results
Molecule = PhoQ, residues 284 288 289 292 302 303 AEGLLW; target = PhoP, residues 12 14 15 18 19 NHFRA (Escherichia coli, UniProt P23836); test = Sort-seq, measured: YFP reporter; system = E. coli; setting = PhoQ-PhoP variant library, with: 10 µM Mg2+; scale = relative to: high Mg2+ state, higher = stronger signaling; endpoint = fold induction; value = 1.06

Repeated from above (sample 3):
Oligonucleotide = AGGGTGGG; value = 0.331
Oligonucleotide = CCACGTGG; value = 0.499
